Results gathered from unrelated publications.
Numbered parts are unrelated; each lists some results of a single study. Changes are numbered by the printed parent chain.

Study 1
Target: UDP-N-acetylglucosamine--peptide N-acetylglucosaminyltransferase 110 kDa subunit (OGT, Homo sapiens, UniProt O15294)
Sequence of UniProt O15294 (whole entry, looked up): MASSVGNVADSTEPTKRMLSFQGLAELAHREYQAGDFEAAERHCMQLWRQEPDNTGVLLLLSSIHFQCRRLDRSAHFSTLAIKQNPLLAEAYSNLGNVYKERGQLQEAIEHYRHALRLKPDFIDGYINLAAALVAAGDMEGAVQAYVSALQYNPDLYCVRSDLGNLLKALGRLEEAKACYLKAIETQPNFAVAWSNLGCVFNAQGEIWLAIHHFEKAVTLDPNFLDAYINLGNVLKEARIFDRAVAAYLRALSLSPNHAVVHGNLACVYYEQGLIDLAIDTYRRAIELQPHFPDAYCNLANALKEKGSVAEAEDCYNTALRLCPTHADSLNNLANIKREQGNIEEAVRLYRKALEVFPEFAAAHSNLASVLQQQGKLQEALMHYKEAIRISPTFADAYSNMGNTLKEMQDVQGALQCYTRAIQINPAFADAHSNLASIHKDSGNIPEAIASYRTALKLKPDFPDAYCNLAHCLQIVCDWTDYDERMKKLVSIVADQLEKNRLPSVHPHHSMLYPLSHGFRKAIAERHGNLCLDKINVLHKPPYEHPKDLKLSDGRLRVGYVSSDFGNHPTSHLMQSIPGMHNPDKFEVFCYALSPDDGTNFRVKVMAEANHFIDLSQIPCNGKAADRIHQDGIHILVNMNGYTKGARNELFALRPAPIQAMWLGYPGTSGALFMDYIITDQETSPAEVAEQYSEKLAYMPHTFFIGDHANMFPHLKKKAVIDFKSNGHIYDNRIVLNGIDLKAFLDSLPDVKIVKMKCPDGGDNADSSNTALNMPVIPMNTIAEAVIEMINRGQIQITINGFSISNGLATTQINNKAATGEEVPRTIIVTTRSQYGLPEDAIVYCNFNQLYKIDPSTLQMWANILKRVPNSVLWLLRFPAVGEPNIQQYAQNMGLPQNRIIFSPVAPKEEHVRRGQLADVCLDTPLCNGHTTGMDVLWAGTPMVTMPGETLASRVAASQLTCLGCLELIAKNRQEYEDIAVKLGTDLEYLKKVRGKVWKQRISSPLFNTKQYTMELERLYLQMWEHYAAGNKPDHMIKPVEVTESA
Read-out: binding
Technique: phage display NGS
Form: peptide
Relative to: input library
Endpoint: minimum log2 enrichment ratio
Molecule = VTPKDRYLPKYTITF; value = 4.19
Molecule = HTAIMNRHQYHMHVN; value = 2.06
Molecule = QQLTQYKPFYQIKPV; value = 3.47
Molecule = QSLVTQYYPKYQIRI; value = 4.32

Study 2
Target: ABI1, truncated, D143A, DHFR fusion (Arabidopsis thaliana, UniProt P49597)
Technique: DHFR PCA, dose-response
Sample: yeast
Notes: Hill fit, mean, not affinity
Together with: (+)-ABA, dose series
Reading: lower = more sensitive
Endpoint: ABA EC50
Starting sequence: PYL1, truncated, DHFR fusion (Arabidopsis thaliana, UniProt Q8VZS8); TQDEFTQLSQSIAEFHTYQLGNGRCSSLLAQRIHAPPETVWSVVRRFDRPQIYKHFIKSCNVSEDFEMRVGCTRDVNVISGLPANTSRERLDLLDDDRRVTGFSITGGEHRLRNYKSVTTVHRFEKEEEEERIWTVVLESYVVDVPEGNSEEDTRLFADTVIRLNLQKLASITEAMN
Variant = G107M; value = 113 µM
Variant = N165A; value = 536 µM
Variant = D65A; value = 4.13 µM
Variant = L94I; value = 3.69 µM
Variant = S80N; value = 181 µM
Variant = F5Y; value = 8.24 µM
Variant = N61L; value = 2.91 µM
Variant = T160V; value = 23.2 µM

Study 3
Target: CCNB2, cyclin fold, Cln2 fusion (human)
Technique: yeast growth competition, sequencing
Sample: yeast
Notes: strong parent motif
Relative to: not given
Reading: higher = stronger binding
Endpoint: normalised enrichment score
Starting sequence: viral docking peptide; YKVKRRLVFGADD; partner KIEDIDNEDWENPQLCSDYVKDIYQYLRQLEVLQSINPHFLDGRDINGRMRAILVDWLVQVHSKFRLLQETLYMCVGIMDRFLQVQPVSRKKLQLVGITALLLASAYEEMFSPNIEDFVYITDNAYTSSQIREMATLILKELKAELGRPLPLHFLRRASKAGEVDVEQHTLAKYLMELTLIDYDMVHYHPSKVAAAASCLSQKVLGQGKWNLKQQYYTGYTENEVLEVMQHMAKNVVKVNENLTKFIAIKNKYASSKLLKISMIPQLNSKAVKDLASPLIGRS
Variant = YAVKRRLVFGADD [K2A]; value = 1.79
Variant = YKVKRRLVFGALD [D12L]; value = 0.809
Variant = YKVKRRLVSGADD [F9S]; value = 0.48
Variant = YKVKRRLVFTADD [G10T]; value = 2.1
Variant = YKCKRRLVFGADD [V3C]; value = 0.717
Variant = YKVKRPLVFGADD [R6P]; value = -0.212
Variant = YKVKRRLVFGHDD [A11H]; value = 1.5
Variant = YKVKRMLVFGADD [R6M]; value = 1
Variant = YKVKRRLVDGADD [F9D]; value = 0.3
Variant = YKVKRRLVFCADD [G10C]; value = 1.82
Variant = YKVKRRLVFGAGD [D12G]; value = 1.36
Variant = YKVKRRLVFEADD [G10E]; value = 3.04
Variant = YKVKRRLVFGEDD [A11E]; value = 2.76
Variant = YKVKRRLGFGADD [V8G]; value = -0.0388
Variant = YKVKLRLVFGADD [R5L]; value = 0.0544

Further values, each from its own experiment
Target: vanadate, free oxyanion
Technique: microfluidic competitive inhibition
Sample: in vitro, cell-free expressed
Tested at: not given
Notes: derived from inhibition constants, unchanged parent 676 nM
Reading: lower = stronger binding
Starting sequence: PafA, mature enzyme, eGFP fusion (Elizabethkingia meningoseptica, UniProt Q9KJX5); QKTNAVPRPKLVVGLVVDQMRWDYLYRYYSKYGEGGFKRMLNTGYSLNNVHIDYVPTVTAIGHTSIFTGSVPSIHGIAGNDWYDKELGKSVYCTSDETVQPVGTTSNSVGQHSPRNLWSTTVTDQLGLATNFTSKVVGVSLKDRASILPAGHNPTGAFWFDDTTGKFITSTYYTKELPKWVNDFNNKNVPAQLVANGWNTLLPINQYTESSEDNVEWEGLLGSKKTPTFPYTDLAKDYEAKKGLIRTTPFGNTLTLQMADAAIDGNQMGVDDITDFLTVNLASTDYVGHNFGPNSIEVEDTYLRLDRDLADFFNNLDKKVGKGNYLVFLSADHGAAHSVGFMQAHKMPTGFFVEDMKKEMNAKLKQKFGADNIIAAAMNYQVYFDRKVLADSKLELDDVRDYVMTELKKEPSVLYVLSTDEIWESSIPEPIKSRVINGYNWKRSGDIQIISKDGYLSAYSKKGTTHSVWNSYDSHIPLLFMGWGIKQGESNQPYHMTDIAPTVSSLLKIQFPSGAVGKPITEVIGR
Variant = L507V; oxyanion analog dissociation constant = 698 nM
Variant = I431V; oxyanion analog dissociation constant = 787 nM
Variant = P9G; oxyanion analog dissociation constant = 986 nM
